# Results gathered from unrelated publications.
# Parts stem from different laboratories: compare values within a part only. Several values in a cell are separate wells, animals, samples, runs or records.

# Series 1
# Host: mouse
# Medium: microsomes or S9
# Concentration: 2 µM
# Time: 0.5 h
SMILES,remaining compound
COc1cc(/C=C/C(=O)O)cc(S(=O)(=O)Nc2cccc(-c3n[nH]c4c3CCC4)c2)c1OC,69.5%
CCn1cc(-c2cc(C(F)F)n3nc(C)cc3n2)c(C)n1,0.0579%
CC1(NC(=O)c2ccc3cc[nH]c3n2)CC=CCC1 (stereo not shown),3.44%
COC(=O)c1cc(C)sc1NC(=O)C1CC(=O)NN1C (stereo not shown),90.1%
CC(C)n1ncc(N2CCOCC2)c(Cl)c1=O,63.5%
O=c1[nH]ccn2nc(-c3ccc(F)cc3)c(CO)c12,23.7%
O=S1(=O)N=C(Nc2ccc3c(c2)Cc2ccccc2-3)c2ccccc21,> 99.9%
O[C@@H]1C[C@@H](c2nnc3n2CCOC3)C[C@@H]1CNc1ncc(Cl)cn1,84.5%

# Series 2
# Structure (SMILES): CCC(=N\O)/C(C)=C/c1ccc(F)cc1
# Concentration: 1 µM
cell line,medium,setting,reference,viability
sample C colorectal tumour organoid,,replicate 2,DMSO,105%
colorectal tumour organoids,,,DMSO,111%
sample I colorectal tumour organoid,,replicate 1,DMSO,97.4%
sample D normal epithelium organoids,human patient-derived organoids,,DMSO control,87.2% and 89.3%
sample B colorectal tumour organoid,,replicate 1,DMSO,114%
sample B colorectal tumour organoid,,replicate 2,DMSO,120%
sample C colorectal tumour organoid,,replicate 1,DMSO,108%
sample I colorectal tumour organoid,,replicate 2,DMSO,80.7%
sample BA colorectal tumour organoid,,,DMSO,120%

# Other studies, line by line
SMILES,test,test system,setting,measurement,result
CC(C)n1cnc(-c2ccc(F)cc2)c1-c1ncc(C(=O)Nc2ccc(N3CCN(C)CC3)cc2)[nH]1,phase 2a trial,idiopathic pulmonary fibrosis patients,"60 mg once daily, adverse event grade 1",patients with first-degree AV block,1%
COc1ccc(-c2c(Nc3ccccn3)[nH]c3c(C4=CCCCC4)c(-c4ccccc4)nn3c2=O)cc1,"LC-MS/MS, refers to: S-adenosylmethionine","human, plasma","oral, 50 mg once daily",percent change from baseline,-58.7% and -73.8% and -76.5%

# Repeated from above (series 1):
SMILES,remaining compound
O=c1[nH]ccn2nc(-c3ccc(F)cc3)c(CO)c12,23.7%
O=S1(=O)N=C(Nc2ccc3c(c2)Cc2ccccc2-3)c2ccccc21,> 99.9%
